Experimental data from different studies.
Each numbered part is a random draw from the data of one study; scales do not carry over between parts.
Chain of UniProt P00519 (whole entry, looked up): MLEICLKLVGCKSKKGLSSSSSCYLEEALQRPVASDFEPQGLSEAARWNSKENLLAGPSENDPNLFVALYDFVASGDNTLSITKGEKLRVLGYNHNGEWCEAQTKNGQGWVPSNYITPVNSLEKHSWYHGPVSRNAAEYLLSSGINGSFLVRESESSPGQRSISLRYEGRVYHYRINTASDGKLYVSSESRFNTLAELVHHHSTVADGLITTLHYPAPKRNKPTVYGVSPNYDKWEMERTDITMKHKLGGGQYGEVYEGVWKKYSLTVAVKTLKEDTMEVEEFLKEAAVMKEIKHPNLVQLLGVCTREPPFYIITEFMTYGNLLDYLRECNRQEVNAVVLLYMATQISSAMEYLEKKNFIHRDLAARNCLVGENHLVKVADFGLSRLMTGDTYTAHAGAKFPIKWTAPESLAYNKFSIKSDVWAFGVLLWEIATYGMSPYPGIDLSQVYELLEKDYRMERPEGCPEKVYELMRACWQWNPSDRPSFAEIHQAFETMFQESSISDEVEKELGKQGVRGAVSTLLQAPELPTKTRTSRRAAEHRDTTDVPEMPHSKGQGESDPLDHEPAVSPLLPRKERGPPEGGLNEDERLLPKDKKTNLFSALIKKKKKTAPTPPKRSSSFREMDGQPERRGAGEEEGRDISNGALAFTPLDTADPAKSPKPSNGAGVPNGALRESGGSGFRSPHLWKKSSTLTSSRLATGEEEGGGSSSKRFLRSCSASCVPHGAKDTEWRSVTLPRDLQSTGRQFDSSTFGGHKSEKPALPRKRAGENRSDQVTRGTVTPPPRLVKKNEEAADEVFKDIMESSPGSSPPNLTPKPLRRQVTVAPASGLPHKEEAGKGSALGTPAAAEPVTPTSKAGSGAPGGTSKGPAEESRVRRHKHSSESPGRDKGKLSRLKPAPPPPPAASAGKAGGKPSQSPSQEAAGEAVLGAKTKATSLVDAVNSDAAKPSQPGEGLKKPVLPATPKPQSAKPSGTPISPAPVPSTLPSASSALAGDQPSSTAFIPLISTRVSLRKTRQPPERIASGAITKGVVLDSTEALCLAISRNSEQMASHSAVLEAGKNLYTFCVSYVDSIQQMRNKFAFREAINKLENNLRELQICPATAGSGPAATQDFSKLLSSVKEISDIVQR
Chain of UniProt Q9UPZ9 (whole entry, looked up): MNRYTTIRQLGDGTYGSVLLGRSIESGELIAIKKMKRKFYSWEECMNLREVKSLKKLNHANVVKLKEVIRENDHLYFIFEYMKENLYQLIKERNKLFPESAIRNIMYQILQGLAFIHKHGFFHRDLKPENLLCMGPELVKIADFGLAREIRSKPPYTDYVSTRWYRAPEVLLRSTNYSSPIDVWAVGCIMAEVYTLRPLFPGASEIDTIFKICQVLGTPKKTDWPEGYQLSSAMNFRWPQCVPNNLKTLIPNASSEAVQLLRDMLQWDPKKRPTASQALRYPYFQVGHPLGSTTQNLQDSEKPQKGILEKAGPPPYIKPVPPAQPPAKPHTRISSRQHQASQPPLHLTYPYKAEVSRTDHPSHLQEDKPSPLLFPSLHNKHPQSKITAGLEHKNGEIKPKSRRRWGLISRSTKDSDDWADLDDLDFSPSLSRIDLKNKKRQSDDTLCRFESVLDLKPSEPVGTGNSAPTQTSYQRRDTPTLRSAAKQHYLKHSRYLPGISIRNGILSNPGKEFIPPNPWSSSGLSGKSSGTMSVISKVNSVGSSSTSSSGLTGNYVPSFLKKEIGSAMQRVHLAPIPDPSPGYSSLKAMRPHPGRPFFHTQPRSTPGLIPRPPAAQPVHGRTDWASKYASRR
Chain of UniProt Q9H422 (whole entry, looked up): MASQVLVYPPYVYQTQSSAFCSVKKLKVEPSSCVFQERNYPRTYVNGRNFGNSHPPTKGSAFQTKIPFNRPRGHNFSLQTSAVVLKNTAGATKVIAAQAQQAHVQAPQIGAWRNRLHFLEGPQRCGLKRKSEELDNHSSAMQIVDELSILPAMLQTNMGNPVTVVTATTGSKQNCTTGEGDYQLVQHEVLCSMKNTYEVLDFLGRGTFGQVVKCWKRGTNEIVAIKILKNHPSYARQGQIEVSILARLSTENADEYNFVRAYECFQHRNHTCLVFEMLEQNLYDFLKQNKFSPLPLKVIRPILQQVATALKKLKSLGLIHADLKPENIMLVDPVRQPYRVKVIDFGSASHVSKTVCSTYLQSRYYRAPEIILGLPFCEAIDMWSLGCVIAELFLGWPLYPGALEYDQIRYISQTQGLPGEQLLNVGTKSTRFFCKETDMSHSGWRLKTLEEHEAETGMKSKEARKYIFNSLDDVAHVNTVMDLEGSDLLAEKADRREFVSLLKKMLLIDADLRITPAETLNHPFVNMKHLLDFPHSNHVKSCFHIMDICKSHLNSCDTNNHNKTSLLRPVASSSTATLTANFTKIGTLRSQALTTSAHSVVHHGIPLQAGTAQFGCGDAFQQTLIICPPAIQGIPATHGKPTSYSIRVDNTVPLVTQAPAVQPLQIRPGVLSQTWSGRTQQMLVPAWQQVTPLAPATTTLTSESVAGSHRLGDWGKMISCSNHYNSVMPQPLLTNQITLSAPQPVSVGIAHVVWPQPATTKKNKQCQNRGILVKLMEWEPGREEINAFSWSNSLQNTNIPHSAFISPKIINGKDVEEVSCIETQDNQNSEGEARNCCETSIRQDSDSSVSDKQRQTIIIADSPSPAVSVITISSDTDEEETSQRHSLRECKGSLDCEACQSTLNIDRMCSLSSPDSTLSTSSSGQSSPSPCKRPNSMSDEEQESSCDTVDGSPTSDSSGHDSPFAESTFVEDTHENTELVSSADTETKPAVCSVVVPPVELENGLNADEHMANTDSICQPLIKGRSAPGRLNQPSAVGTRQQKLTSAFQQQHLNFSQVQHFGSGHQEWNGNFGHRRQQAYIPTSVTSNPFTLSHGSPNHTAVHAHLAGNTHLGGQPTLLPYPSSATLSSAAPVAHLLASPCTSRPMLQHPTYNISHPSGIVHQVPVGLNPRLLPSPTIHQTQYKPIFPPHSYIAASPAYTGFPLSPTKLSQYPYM
Chain of UniProt Q14164 (whole entry, looked up): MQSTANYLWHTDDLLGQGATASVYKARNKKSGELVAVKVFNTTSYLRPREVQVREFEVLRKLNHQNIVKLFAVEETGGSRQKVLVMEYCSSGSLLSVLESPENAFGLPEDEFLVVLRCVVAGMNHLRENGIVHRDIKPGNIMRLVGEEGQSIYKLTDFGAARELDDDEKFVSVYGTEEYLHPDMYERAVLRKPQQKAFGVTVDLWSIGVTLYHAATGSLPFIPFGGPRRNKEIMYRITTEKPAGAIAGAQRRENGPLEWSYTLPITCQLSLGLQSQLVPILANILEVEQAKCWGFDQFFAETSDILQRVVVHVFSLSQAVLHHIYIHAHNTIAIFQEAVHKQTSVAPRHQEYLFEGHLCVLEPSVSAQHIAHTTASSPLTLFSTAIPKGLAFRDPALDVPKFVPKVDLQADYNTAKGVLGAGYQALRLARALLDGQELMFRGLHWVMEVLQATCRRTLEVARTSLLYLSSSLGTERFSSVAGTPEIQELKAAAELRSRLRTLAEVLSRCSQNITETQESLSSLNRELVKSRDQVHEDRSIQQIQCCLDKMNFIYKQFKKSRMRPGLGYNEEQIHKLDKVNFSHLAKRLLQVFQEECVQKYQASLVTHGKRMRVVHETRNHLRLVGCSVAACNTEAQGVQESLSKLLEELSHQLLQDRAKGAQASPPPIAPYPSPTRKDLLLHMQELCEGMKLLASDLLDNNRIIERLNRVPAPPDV
Chain of UniProt P42680 (whole entry, looked up): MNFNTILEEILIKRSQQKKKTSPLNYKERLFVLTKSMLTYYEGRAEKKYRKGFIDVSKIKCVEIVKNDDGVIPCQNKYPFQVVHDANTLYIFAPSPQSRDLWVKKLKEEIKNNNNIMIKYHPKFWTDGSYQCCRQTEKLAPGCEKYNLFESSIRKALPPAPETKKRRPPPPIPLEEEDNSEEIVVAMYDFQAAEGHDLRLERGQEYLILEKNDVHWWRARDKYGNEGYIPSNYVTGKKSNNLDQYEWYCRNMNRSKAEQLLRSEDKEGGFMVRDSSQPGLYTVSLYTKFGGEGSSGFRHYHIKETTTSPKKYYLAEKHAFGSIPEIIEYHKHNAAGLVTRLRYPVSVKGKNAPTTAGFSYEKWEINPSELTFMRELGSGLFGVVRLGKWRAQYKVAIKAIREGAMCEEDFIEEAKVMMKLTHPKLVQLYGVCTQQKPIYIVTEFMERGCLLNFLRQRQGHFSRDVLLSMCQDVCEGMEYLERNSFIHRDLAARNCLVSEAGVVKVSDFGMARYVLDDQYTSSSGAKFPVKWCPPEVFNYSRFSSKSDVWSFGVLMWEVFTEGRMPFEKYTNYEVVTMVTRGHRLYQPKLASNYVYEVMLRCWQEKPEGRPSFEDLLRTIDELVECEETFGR

Set 1 — concentration: 1 µM
SMILES: O=C1CCc2cc(Nc3cc(OC4CCOCC4)c([N+](=O)[O-])cc3Cl)ccc2N1
For PIP4K2B (Homo sapiens, UniProt P78356); cell-free assay, competition with immobilised ligand: remaining binding read 100%.
For RIPK4 (Homo sapiens, UniProt P57078); cell-free assay, competition with immobilised ligand: remaining binding read 100%.
For NEK7 (Homo sapiens, UniProt Q8TDX7); cell-free assay, competition with immobilised ligand: remaining binding read 87%.
DCLK2 (Homo sapiens, UniProt Q8N568); cell-free assay, competition with immobilised ligand — remaining binding: 100%.
It gave 93% for remaining binding (CAMK1 (Homo sapiens, UniProt Q14012); cell-free assay, competition with immobilised ligand).
For TEC (Homo sapiens, UniProt P42680); cell-free assay, competition with immobilised ligand: remaining binding read 82%.
KDR (Homo sapiens, UniProt P35968); cell-free assay, competition with immobilised ligand — remaining binding: 100%.
CLK2 (Homo sapiens, UniProt P49760); cell-free assay, competition with immobilised ligand — remaining binding: 99%.
The remaining binding was 100% (CILK1 (Homo sapiens, UniProt Q9UPZ9); cell-free assay, competition with immobilised ligand).
It gave 100% for remaining binding (Ribosomal protein S6 kinase alpha-3, C-terminal kinase domain (RPS6KA3, Homo sapiens, UniProt P51812); cell-free assay, competition with immobilised ligand).
WNK4 (Homo sapiens, UniProt Q96J92); cell-free assay, competition with immobilised ligand — remaining binding: 100%.
It gave 88% for remaining binding (CDK2 (Homo sapiens, UniProt P24941); cell-free assay, competition with immobilised ligand).
It gave 91% for remaining binding (HIPK3 (Homo sapiens, UniProt Q9H422); cell-free assay, competition with immobilised ligand).
NEK6 (Homo sapiens, UniProt Q9HC98); cell-free assay, competition with immobilised ligand — remaining binding: 96%.
It gave 96% for remaining binding (SIK1 (Homo sapiens, UniProt P57059); competition binding).
It gave 94% for remaining binding (RET (Homo sapiens, UniProt P07949, M918T); cell-free assay, competition with immobilised ligand).
MAP2K6 (Homo sapiens, UniProt P52564); cell-free assay, competition with immobilised ligand — remaining binding: 69%.
For Tyrosine-protein kinase ABL1, phosphorylated (ABL1, Homo sapiens, UniProt P00519); cell-free assay, competition with immobilised ligand: remaining binding read 100%.
ALK (Homo sapiens, UniProt Q9UM73, C1156Y); cell-free assay, competition with immobilised ligand — remaining binding: 91%.
The remaining binding was 90% (IKBKE (Homo sapiens, UniProt Q14164); cell-free assay, competition with immobilised ligand).
It gave 100% for remaining binding (CAMK2D (Homo sapiens, UniProt Q13557); cell-free assay, competition with immobilised ligand).

Set 2 — read-out: enzyme activity; action: inhibitor; concentration: 0.5 µM; baseline: control
Target: Ribosomal protein S6 kinase beta-2 (RPS6KB2, Homo sapiens, UniProt Q9UBS0)
Chain of UniProt Q9UBS0 (whole entry, looked up): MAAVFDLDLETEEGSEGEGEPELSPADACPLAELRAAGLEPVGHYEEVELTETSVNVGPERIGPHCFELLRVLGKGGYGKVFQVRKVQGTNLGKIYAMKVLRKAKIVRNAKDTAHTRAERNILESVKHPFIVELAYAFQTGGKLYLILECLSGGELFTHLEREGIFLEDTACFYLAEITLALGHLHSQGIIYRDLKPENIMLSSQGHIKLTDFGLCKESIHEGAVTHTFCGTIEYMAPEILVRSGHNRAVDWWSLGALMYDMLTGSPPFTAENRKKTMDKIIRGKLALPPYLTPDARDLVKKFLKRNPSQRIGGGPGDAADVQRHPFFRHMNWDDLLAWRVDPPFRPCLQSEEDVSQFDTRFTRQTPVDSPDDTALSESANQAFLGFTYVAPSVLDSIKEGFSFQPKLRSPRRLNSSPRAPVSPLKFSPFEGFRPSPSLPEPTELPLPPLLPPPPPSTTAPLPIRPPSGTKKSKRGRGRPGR
The remaining activity of CCc1[nH]c(-c2ccc(OC)cc2)nc1-c1ccncc1 is reported as 95.6%.
The remaining activity of CSc1nc(-c2ccnc(N[C@@H](C)c3ccccc3)c2)c(-c2ccc(F)cc2)[nH]1 (racemic) is reported as 92.8%.
O=S(=O)(NCCNC/C=C/c1ccc(Br)cc1)c1cccc2cnccc12 gave a remaining activity of 71.9%.
For Cc1cncc2cccc(S(=O)(=O)N3CCCN(C(=O)CN)C[C@@H]3C)c12, the remaining activity was 99.3%.
The remaining activity of Cc1ccc(NC2=CC(=O)c3sc(C)nc3C2=O)cc1 is reported as 95.2%.
The remaining activity of Nc1nccc(-c2c(-c3ccc(F)cc3)ncn2C2CCNCC2)n1 is reported as 90.9%.
CC[n+]1c(/C=C/N(C)c2ccccc2)n(-c2ccccc2)c2ccc(-c3nc4ccccc4s3)cc21 has a remaining activity of 93.2%.
With CC(=O)c1ccc(N2CCOCC2)cc1O the remaining activity was 101%.
With O=C1Cc2c([nH]c3ccc([N+](=O)[O-])cc23)-c2ccccc2N1 the remaining activity was 96.5%.
The remaining activity of CCCC(=O)Oc1ccc2[nH]c(C(=O)c3cc4ccccc4[nH]3)cc2c1 is reported as 102%.
The remaining activity of Fc1ccc(-c2nc3n(c2-c2ccncc2)CCS3)cc1 is reported as 85.6%.

Set 3 — species: mouse; sample: microsomes or S9; concentration: 2 µM; time: 0.5 h
The remaining compound of CC(=O)c1cnc2c(C)c(-c3ccc(C)cc3)nn2c1C is reported as 0.199%.
Cc1ccc(Nc2nc(Cl)nc(NC(C)C)n2)cc1 gave a remaining compound of 0.0493%.
For COC(=O)c1c(NC(=O)N2CCN(C(=O)C(C)C)CC2)sc2c1CC(C)(C)OC2, the remaining compound was 60.4%.
The remaining compound of CC1CCN(C(=O)c2cc3c([nH]2)CCOC3)c2c(O)cccc21 (stereo not shown) is reported as 19.5%.
With CCNC(=O)NCCc1ccc(OC)c(Nc2ncc(Cl)c(Nc3ccccc3S(=O)(=O)C(C)C)n2)c1 the remaining compound was 9.16%.
COc1cc(/C=C/C(=O)O)cc(S(=O)(=O)N(C)CCO)c1OC gave a remaining compound of 99.6%.
For CS(=O)(=O)N1N=C(c2cccs2)CC1c1ccccc1F (stereo not shown), the remaining compound was 25.7%.
With Cc1c(C#N)c2ccccc2n1Cc1nc(CCc2ccccc2)n[nH]1 the remaining compound was 0.599%.
COc1ccc(C2C(C(=O)Nc3ccccc3OC)CCC(=O)N2c2ccc3c(c2)OCO3)cc1 (stereo not shown) has a remaining compound of 35.8%.
The remaining compound of Cc1ccn(S(=O)(=O)c2cc(C)c(C)cc2Br)n1 is reported as 0.432%.
The remaining compound of CCCn1c(N)c(N(CCOC)C(C)=O)c(=O)n(CC(=O)Nc2cc(Cl)cc(Cl)c2)c1=O is reported as 48.8%.
With CC1CC(N(C(=O)Nc2ccccc2)c2ccccc2)c2ccccc2N1C(=O)c1ccco1 (stereo not shown) the remaining compound was 1.04%.
For COc1ccc(C)cc1/N=c1/[nH]cnc2c1oc1ccccc12, the remaining compound was 2.87%.

Mixed results
Under “log2 fold change”, CC(C)(C)c1cnc(CSc2cnc(NC(=O)C3CCN(CCCCCSc4cccc5c4CN(C4CCC(=O)NC4=O)C5=O)CC3)s2)o1 (stereo not shown) is recorded as 0.788 (HuT78; MS proteomics, measured: P36578 (RPL4); concentration not given, 6 h; baseline: 0 h).
